Results of several laboratories.
Lines come from different studies, so protocols differ.
Method: steady-state kinetics
B1: enzyme H284A (Daphnia magna, UniProt A0A0A7CK57); chain MVDAAVAEKLEAGFQKLQEATNCKSLLKKHLTREIFDKIKDLKTSFGSTLLDVIQSGVENLDSGFGVYAPDAEAYSVFNDLFEPMICDYHTGFKPGDAHPPRDFGDLETFGNLDPEGAFIVSTRVRCGRSLAGYAFNPCLTEANYKEMEEKVVASLSSLEGELKGTYYPLTGMTKEVQTQLIQDRFLFKEGDRFLQAANACRYWPTGRGIYHNDAKTFLVWCNEEDHLRIISMQKGGDLKAVYARLVNAINEIEKRIPFSHHDKYGFLTFCPTNLGTTIRASVAIALPKLAADLAKLEEAAGKFNLQVRGTAGEHTEAEGGVYDISNKRRMGLTEYQAVKEMYDGLQELIRMEKEAA
B2: protein F222A (Planktothrix agardhii, UniProt F5B6Z0); chain MIVNVIQKDRLKEQKLQFIRNHQQAFDVEPIYPLPLFEDFVTSIEGDCSLEASCKIESDKLIASRFLLFFEDKTQEWQKYLHQSLTFFGLVENRVGVKINYSLLQQFLGSSFDFSKVTVLSAGIDLRNNLAESSLKMHIRIKDYPEKLDKAFALSDGAADGNYLKDFVNLIGFDFYFNGKSEIEIYAEVQEDDFFKPEINNLVWQHFPKTALQPLKASSLFATGLSKANNNPVLYYHLKNRQDLTNYFKLNDTAQRVHSFYQHQDILPYMWVGTAQKELEKTRIENIRLYYYKSFKMESN
B3: LYPLA1 (Homo sapiens, UniProt O75608); chain MCGNNMSTPLPAIVPAARKATAAVIFLHGLGDTGHGWAEAFAGIRSSHIKYICPHAPVRPVTLNMNVAMPSWFDIIGLSPDSQEDESGIKQAAENIKALIDQEVKNGIPSNRIILGGFSQGGALSLYTALTTQQKLAGVTALSCWLPLRASFPQGPIGGANRDISILQCHGDCDPLVPLMFGSLTVEKLKTLVNPANVTFKTYEGMMHSSCQQEMMDVKQFIDKLLPPID
B4: ycjS (Escherichia coli, UniProt P77503); chain MKSAMTSSPLRVAIIGAGQVADKVHASYYCTRNDLELVAVCDSRLSQAQALAEKYGNASVWDDPQAMLLAVKPDVVSVCSPNRFHYEHTLMALEAGCHVMCEKPPAMTPEQAREMCDTARKLGKVLAYDFHHRFALDTQQLREQVTNGVLGEIYVTTARALRRCGVPGWGVFTNKELQGGGPLIDIGIHMLDAAMYVLGFPAVKSVNAHSFQKIGTQKSCGQFGEWDPATYSVEDSLFGTIEFHNGGILWLETSFALNIREQSIMNVSFCGDKAGATLFPAHIYTDNNGELMTLMQREIADDNRHLRSMEAFINHVQGKPVMIADAEQGYIIQQLVAALYQSAETGTRVEL
B5: carbamoyl phosphate synthetase large subunit A23F/C24F/I18W (Escherichia coli, UniProt P00968); chain PKRTDIKSILILGAGPWVIGQFFEFDYSGAQACKALREEGYRVILVNSNPATIMTDPEMADATYIEPIHWEVVRKIIEKERPDAVLPTMGGQTALNCALELERQGVLEEFGVTMIGATADAIDKAEDRRRFDVAMKKIGLETARSGIAHTMEEALAVAADVGFPCIIRPSFTMGGSGGGIAYNREEFEEICARGLDLSPTKELLIDESLIGWKEYEMEVVRDKNDNCIIVCSIENFDAMGIHTGDSITVAPAQTLTDKEYQIMRNASMAVLREIGVETGGSNVQFAVNPKNGRLIVIEMNPRVSRSSALASKATGFPIAKVAAKLAVGYTLDELMNDITGGRTPASFEPSIDYVVTKIPRFNFEKFAGANDRLTTQMKSVGEVMAIGRTQQESLQKALRGLEVGATGFDPKVSLDDPEALTKIRRELKDAGADRIWYIADAFRAGLSVDGVFNLTNIDRWFLVQIEELVRLEEKVAEVGITGLNADFLRQLKRKGFADARLAKLAGVREAEIRKLRDQYDLHPVYKRVDTCAAEFATDTAYMYSTYEEECEANPSTDREKIMVLGGGPNRIGQGIEFDYCCVHASLALREDGYETIMVNCNPETVSTDYDTSDRLYFEPVTLEDVLEIVRIEKPKGVIVQYGGQTPLKLARALEAAGVPVIGTSPDAIDRAEDRERFQHAVERLKLKQPANATVTAIEMAVEKAKEIGYPLVVRPSYVLGGRAMEIVYDEADLRRYFQTAVSVSNDAPVLLDHFLDDAVEVDVDAICDGEMVLIGGIMEHIEQAGVHSGDSACSLPAYTLSQEIQDVMRQQVQKLAFELQVRGLMNVQFAVKNNEVYLIEVNPRAARTVPFVSKATGVPLAKVAARVMAGKSLAEQGVTKEVIPPYYSVKEVVLPFNKFPGVDPLLGPEMRSTGEVMGVGRTFAEAFAKAQLGSNSTMKKHGRALLSVREGDKERVVDLAAKLLKQGFELDATHGTAIVLGEAGINPRLVNKVHEGRPHIQDRIKNGEYTYIINTTSGRRAIEDSRVIRRSALQYKVHYDTTLNGGFATAMALNADATEKVISVQEMHAQIK
B6: SULT2A1 (Homo sapiens, UniProt Q06520); chain MSDDFLWFEGIAFPTMGFRSETLRKVRDEFVIRDEDVIILTYPKSGTNWLAEILCLMHSKGDAKWIQSVPIWERSPWVESEIGYTALSETESPRLFSSHLPIQLFPKSFFSSKAKVIYLMRNPRDVLVSGYFFWKNMKFIKKPKSWEEYFEWFCQGTVLYGSWFDHIHGWMPMREEKNFLLLSYEELKQDTGRTIEKICQFLGKTLEPEELNLILKNSSFQSMKENKMSNYSLLSVDYVVDKAQLLRKGVSGDWKNHFTVAQAEDFDKLFQEKMADLPRELFPWE
Sequence of UniProt Q8QZR1 (whole entry, looked up): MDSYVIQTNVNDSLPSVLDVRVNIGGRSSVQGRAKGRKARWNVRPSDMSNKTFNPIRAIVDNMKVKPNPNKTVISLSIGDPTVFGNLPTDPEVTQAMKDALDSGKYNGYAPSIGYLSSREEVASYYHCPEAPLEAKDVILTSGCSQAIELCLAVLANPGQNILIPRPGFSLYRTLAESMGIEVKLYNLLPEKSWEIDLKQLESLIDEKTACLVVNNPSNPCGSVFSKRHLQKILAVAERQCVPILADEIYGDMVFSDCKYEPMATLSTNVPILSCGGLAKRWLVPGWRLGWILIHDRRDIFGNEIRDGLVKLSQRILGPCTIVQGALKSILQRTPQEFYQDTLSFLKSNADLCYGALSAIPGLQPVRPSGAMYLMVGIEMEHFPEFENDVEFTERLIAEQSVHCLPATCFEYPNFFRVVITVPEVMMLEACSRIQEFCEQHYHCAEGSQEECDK
Sequence of UniProt Q27593 (whole entry, looked up): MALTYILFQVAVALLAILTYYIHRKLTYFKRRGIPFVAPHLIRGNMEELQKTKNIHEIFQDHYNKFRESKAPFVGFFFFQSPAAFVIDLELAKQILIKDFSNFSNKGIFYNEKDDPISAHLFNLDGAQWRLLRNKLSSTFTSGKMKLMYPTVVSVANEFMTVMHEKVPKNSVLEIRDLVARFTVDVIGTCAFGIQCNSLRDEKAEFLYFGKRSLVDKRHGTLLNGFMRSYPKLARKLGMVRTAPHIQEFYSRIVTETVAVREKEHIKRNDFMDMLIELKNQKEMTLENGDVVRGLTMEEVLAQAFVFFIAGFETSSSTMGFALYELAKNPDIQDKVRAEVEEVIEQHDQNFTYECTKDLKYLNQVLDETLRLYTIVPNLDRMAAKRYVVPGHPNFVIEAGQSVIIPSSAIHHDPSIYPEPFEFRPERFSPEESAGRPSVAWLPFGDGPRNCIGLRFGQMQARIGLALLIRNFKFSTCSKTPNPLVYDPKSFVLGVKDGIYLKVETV
Sequence of UniProt P27306 (whole entry, looked up): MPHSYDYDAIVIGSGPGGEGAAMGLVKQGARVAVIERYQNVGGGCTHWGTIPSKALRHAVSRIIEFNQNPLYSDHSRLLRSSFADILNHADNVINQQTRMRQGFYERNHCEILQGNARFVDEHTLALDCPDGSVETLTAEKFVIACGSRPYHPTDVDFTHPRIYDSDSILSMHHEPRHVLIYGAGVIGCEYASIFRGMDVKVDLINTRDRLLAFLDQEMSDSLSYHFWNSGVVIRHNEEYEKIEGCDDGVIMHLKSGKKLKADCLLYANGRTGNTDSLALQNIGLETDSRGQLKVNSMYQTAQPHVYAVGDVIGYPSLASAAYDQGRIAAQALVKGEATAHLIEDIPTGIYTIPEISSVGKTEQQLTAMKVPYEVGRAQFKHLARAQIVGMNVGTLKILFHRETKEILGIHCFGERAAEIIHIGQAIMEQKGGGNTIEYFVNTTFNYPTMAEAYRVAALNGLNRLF

The Km of `B1 (enzyme H284A)` is reported as 900 µM (N=C(N)NCCC[C@H](N)C(=O)O; pH 8.5).
With `AphC (Rhodococcus jostii, UniProt Q0S9X1)` the Km was 2.8 µM (Cc1ccc(O)c(O)c1; pH 8, 25 °C, apparent, with: O2).
`pyc (Rhizobium etli, UniProt Q2K340)` gave a Km of 470 µM (CC(=O)C(=O)O; pH 7.5, 25 °C, with: MgATP 2.5 mM).
`Tat (Mus musculus, UniProt Q8QZR1)` has a Km of 7300 µM (CCCCC(=O)C(=O)O; pH 7, 38 °C, with: PLP).
The Km of `enzyme (Triticum aestivum, UniProt A0A6J4BJH4)` is reported as 282 µM (O=C1[C@@H](O[C@@H]2O[C@H](CO)[C@@H](O)[C@H](O)[C@H]2O)Oc2ccccc2N1O; pH 7.2, 30 °C).
With `B2 (protein F222A)` the Km was 190 µM (CC(C)=CCC/C(C)=C/COP(=O)(O)OP(=O)(O)O; with: tri-Tyr peptide acceptor).
`CYP6A8 (Drosophila melanogaster, UniProt Q27593)` has a Km of 10.7 µM (CCCCCCCCCCCC(=O)O; DLPC; pH 7.4, 37 °C, total hydroxylation, with: P450 reductase, NADPH).
For `B3 (LYPLA1)`, the Km was 14.5 µM (CN(C)c1ccc(/N=N/c2ccc(C(=O)NCCCn3cc(CCCCCCCCCCCCCCCC(=O)SC[C@H](NC(=O)c4cc5ccc(O)cc5oc4=O)C(=O)N4CCOCC4)nn3)cc2)cc1; pH 7.4, 37 °C).
`B4 (ycjS)` has a Km of 800 µM (CO[C@@H]1O[C@H](CO)[C@@H](O)C(=O)[C@H]1O; pH 7, 30 °C, with: NADH 0.3 mM).
With `B5` the Km was 250 µM (Nc1ncnc2c1ncn2[C@@H]1O[C@H](COP(=O)(O)OP(=O)(O)OP(=O)(O)O)[C@@H](O)[C@H]1O; pH 7.6, KCl 100 mM, with: glutamine 10 mM, ornithine 10 mM).
`sthA (Escherichia coli, UniProt P27306)` has a Km of 68 µM (NC(=O)c1ccc[n+]([C@@H]2O[C@H](COP(=O)(O)OP(=O)(O)OC[C@H]3O[C@@H](n4cnc5c(N)ncnc54)[C@H](O)[C@@H]3O)[C@@H](O)[C@H]2O)c1; pH 7.5, 37 °C, NaCl 150 mM, with: thio-NADH 200 µM).
`protein (Candidatus Protochlamydia amoebophila, UniProt A0A2P9HA01)` has a Km of 22 µM (Nc1nc2c(ncn2[C@@H]2O[C@H](COP(=O)(O)OP(=O)(O)OP(=O)(O)O)[C@@H](O)[C@H]2O)c(=O)[nH]1; pH 7, 30 °C, transporter, labelled substrate, apparent, not purified).
With `B6 (SULT2A1)` the Km was 1.3 µM (C[C@]12CC[C@H](O)CC1=CC[C@@H]1[C@@H]2CC[C@]2(C)C(=O)CC[C@@H]12; pH 7.4, 25 °C).

Repeated from above:
For `B3 (LYPLA1)`, the Km was 14.5 µM (CN(C)c1ccc(/N=N/c2ccc(C(=O)NCCCn3cc(CCCCCCCCCCCCCCCC(=O)SC[C@H](NC(=O)c4cc5ccc(O)cc5oc4=O)C(=O)N4CCOCC4)nn3)cc2)cc1; pH 7.4, 37 °C).
`B4 (ycjS)` has a Km of 800 µM (CO[C@@H]1O[C@H](CO)[C@@H](O)C(=O)[C@H]1O; pH 7, 30 °C, with: NADH 0.3 mM).
